Earlier results, collected from citations in different studies.
Protocols differ between the studies behind these lines.

`F[P-](F)(F)(F)(F)F.OCP(CO)CO.OCP(CO)CO.OCP(CO)CO.OCP(CO)CO.[Cu+]` — result for “cytotoxic potency ratio”: over 40 fold (human cancer cells; reference: cisplatin).
For `COc1cc(OC)c(OC)cc1/C=C/C(=O)/C=C/c1cc2ccccc2cc1Cl`, the IC50 was 3.12 µM (PC-3; cytotoxicity).
`C1CCCCCC2(CCCCC1)OOCCCOO2` gave a CC50 of 0.5 to 9.3 µM (Huh-7; cytotoxicity).
`CC[C@H](C)[C@@H]1NC(=O)CNC(=O)[C@@H]2CSSC[C@@H]3NC(=O)[C@H](Cc4ccc(O)cc4)NC(=O)[C@@H](NC(=O)[C@H](CC(C)C)NC(=O)[C@H](CC(C)C)NC(=O)CN)CSSC[C@@H](C(=O)N4CCC[C@H]4C(=O)N[C@@H](CCCNC(=N)N)C(=O)N[C@@H](CCCNC(=N)N)C(=O)O)NC(=O)[C@H](CSSC[C@H](NC(=O)[C@H](Cc4c[nH]cn4)NC(=O)CNC(=O)[C@H](CCCCN)NC(=O)[C@H](CCCNC(=N)N)NC3=O)C(=O)N[C@@H](CCCCN)C(=O)N[C@@H](CCCNC(=N)N)C(=O)NCC(=O)N[C@@H](CCC(=O)O)C(=O)N[C@@H](CCCNC(=N)N)C(=O)N[C@@H](C(C)C)C(=O)N[C@@H](CCCNC(=N)N)C(=O)NCC(=O)N[C@@H]([C@@H](C)O)C(=O)N2)NC(=O)[C@H](Cc2ccc(O)cc2)NC(=O)[C@H](CC(C)C)NC(=O)[C@H](Cc2ccccc2)NC(=O)[C@H](CCCNC(=N)N)NC1=O` — result for cytotoxicity: “not toxic” (RAW264.7; NG).
`Nc1c(C(=O)NCc2ccc(F)cc2F)c(=O)n(O)c2ncccc12` gave a CC50 of over 250 µM (HOS; item: ATP level).
With `CN(C)CCC/N=C1\C[C@H]2CC[C@]1(C)C2(C)C` the CC50 was over 2120 µM (MDCK; cytotoxicity).
With `CC[C@H](C)[C@H](NC(=O)[C@H](CCCCN)NC(=O)[C@H](CCC(=O)O)NC(=O)[C@H](CCCCN)NC(=O)[C@H](CO)NC(=O)[C@H](CCCCN)NC(=O)[C@H](CCCNC(=N)N)NC(=O)[C@H](Cc1ccccc1)NC(=O)[C@H](Cc1ccccc1)NC(=O)[C@H](CC(=O)O)NC(=O)CNC(=O)[C@H](CC(C)C)NC(=O)[C@@H](N)CC(C)C)C(=O)NCC(=O)N[C@@H](CCCCN)C(=O)N[C@@H](CCC(=O)O)C(=O)N[C@@H](Cc1ccccc1)C(=O)N[C@@H](CCCCN)C(=O)N[C@@H](CCCNC(=N)N)C(=O)N[C@H](C(=O)N[C@H](C(=O)N[C@@H](CCC(N)=O)C(=O)N[C@@H](CCCNC(=N)N)C(=O)N[C@H](C(=O)N[C@@H](CCCCN)C(=O)N[C@@H](CC(=O)O)C(=O)N[C@@H](Cc1ccccc1)C(=O)N[C@@H](CC(C)C)C(=O)N[C@@H](CCCNC(=N)N)C(=O)N[C@@H](CC(N)=O)C(=O)N[C@@H](CC(C)C)C(=O)N[C@H](C(=O)N1CCC[C@H]1C(=O)N[C@@H](CCCNC(=N)N)C(=O)N[C@H](C(=O)N[C@@H](CCC(=O)O)C(=O)N[C@@H](CO)C(=O)O)[C@@H](C)O)C(C)C)[C@@H](C)CC)C(C)C)[C@@H](C)CC` the cytotoxic concentration was over 125 µg/mL (human peripheral blood leukocytes; cell death; 10% FBS).
The CC50 of `CN(C)CC/N=C1\C[C@H]2CC[C@]1(C)C2(C)C` is reported as over 2250 µM (MDCK; cytotoxicity).
Under cytotoxicity, `O=C(O)c1cccc(CP(=O)(O)O)n1` is recorded as “not toxic” (BL-C-1 African green monkey kidney; concentration not given).
For `CC(C)C[C@@H]1NC(=O)[C@H](C(C)C)NC(=O)[C@H](CO)NC(=O)CNC(=O)CNC(=O)[C@H](CCCNC(=N)N)NC(=O)[C@@H]2CCCN2C(=O)[C@@H](NC(=O)CC[C@H](NC(=O)c2ccc(N(C)Cc3cnc4nc(N)nc(N)c4n3)cc2)C(=O)O)C(C)(C)SSC[C@@H](C(=O)O)NC(=O)CNC(=O)[C@H]([C@@H](C)O)NC(=O)[C@H](C(C)C)NC1=O`, the cytotoxicity ratio was 45 fold (MOLT-3; concentration not given; reference: methotrexate over cpd, fold lower than methotrexate).

For quick reference, copied from above:
`CC[C@H](C)[C@@H]1NC(=O)CNC(=O)[C@@H]2CSSC[C@@H]3NC(=O)[C@H](Cc4ccc(O)cc4)NC(=O)[C@@H](NC(=O)[C@H](CC(C)C)NC(=O)[C@H](CC(C)C)NC(=O)CN)CSSC[C@@H](C(=O)N4CCC[C@H]4C(=O)N[C@@H](CCCNC(=N)N)C(=O)N[C@@H](CCCNC(=N)N)C(=O)O)NC(=O)[C@H](CSSC[C@H](NC(=O)[C@H](Cc4c[nH]cn4)NC(=O)CNC(=O)[C@H](CCCCN)NC(=O)[C@H](CCCNC(=N)N)NC3=O)C(=O)N[C@@H](CCCCN)C(=O)N[C@@H](CCCNC(=N)N)C(=O)NCC(=O)N[C@@H](CCC(=O)O)C(=O)N[C@@H](CCCNC(=N)N)C(=O)N[C@@H](C(C)C)C(=O)N[C@@H](CCCNC(=N)N)C(=O)NCC(=O)N[C@@H]([C@@H](C)O)C(=O)N2)NC(=O)[C@H](Cc2ccc(O)cc2)NC(=O)[C@H](CC(C)C)NC(=O)[C@H](Cc2ccccc2)NC(=O)[C@H](CCCNC(=N)N)NC1=O` — result for cytotoxicity: “not toxic” (RAW264.7; NG).
